# Published values from different studies.
# Protocols differ between the studies behind these lines. Values joined by “and” are separate records of one study, mostly repeats; a detail may differ. ± marks the error that the study gave.
SMILES,test,test system,conditions,how to read,endpoint,result
O=C(Nc1ccccc1)C1CCN(C(=O)Oc2cccnc2)CC1,adverse event reporting,healthy women,"oral, 100 mg, 9 days",,subjects with Dysmenorrhoea adverse event,0%
CC(C)(C(=O)NC1C2CC3CC1CC(C(N)=O)(C3)C2)N1CCN(c2ccc(C(F)(F)F)cn2)CC1 (centres unmarked),,"human, plasma","10 mg once daily, 5 days, median",,dose-normalised free AUC(0-24),1.4 (ng·h/mL)/mg
CO[C@H]1C[C@@H]2CC[C@@H](C)[C@@](O)(O2)C(=O)C(=O)N2CCCC[C@H]2C(=O)O[C@H]([C@H](C)C[C@@H]2CC[C@@H](OC(=O)NCCOCCOCCOCCOCCOCCOCCOCCOCCC(=O)N3CCc4cc(Cn5nc(-c6ccc7oc(N)nc7c6)c6c(N)ncnc65)ccc4C3)[C@H](OC)C2)C[C@@H](O)[C@H](C)/C=C(\C)[C@@H](O)[C@@H](OC)C(=O)[C@H](C)C[C@H](C)/C=C/C=C/C=C/1C,,patients with advanced solid tumours,"intravenous, 1.6 mg/3 mg weekly, any grade",,incidence of Constipation TEAE,20%
OC[C@H]1OC(O)[C@H]([18F])[C@@H](O)[C@@H]1O (some centres unmarked),PET/CT,"Sprague-Dawley rat, nasal cavity","intranasal, dose not given, 20 min",reference: dose,fraction of dose remaining,~50%
COc1cc2c(Oc3ccc4[nH]c(C)cc4c3F)ccnc2cc1OCC1(N)CC1,,paediatric recurrent refractory sarcoma,10 mg,,grade 1 or 2 Proteinuria,25%
Cn1c(-c2ccc(C(N)=O)cc2F)nnc1C(C)(C)Oc1c(F)cc(Cl)cc1F,,human,"oral, dose not given, single ascending dose all doses",,subjects with general disorders TEAE,22.2%
Clc1ccc(-c2ccccc2)cc1,,"rat Sprague-Dawley female, serum","inhalation, 35 µg/rat, 24 h",,serum Phosphorous,8 ± 0.5 mg/dL
O=S(=O)(Nc1ccccc1)c1ccc(NC(=S)Nc2ccccc2)cc1,,"female mouse, blood","oral, 5 mg/kg daily, 14 days",,albumin level,3.1 g/dL
COc1ncccc1-c1cnn2ccc(N3CCN(C(=O)OC(C)C)CC3)nc12,,"mouse nerve ligation model, brain","oral, 3 mg/kg, 30 min after last dose, repeat dosing day 4",,drug concentration,2200 nM
C=C(CN(C(=O)c1c(C(F)F)nn(C)c1F)C1CC1)c1ccc(Cl)cc1Cl,static acute toxicity test,zebrafish (Brachydanio rerio),"0.578 mg a.i./L, 96 h",,mortality,0%
CN(C)CCCN1c2ccccc2Sc2ccc(Cl)cc21,,human hepatocytes,concentration not given,,hepatocyte binding,99%
Nc1nc(=O)n([C@H]2C[C@H](O)[C@@H](CO)O2)cc1F,,advanced solid tumour patients,added: tetrahydrouridine,,MTD,134 mg/m²/day
N=C(N)NCCC[C@@H](NC(=O)[C@@H](N)Cc1ccccc1)C(=O)N[C@@H](Cc1ccccc1)C(=O)N[C@@H](CCCCN)C(N)=O,,"early Huntington's disease patients, plasma","subcutaneous, 15 mg, day 1, median",,lag time,0 h
Cn1cncc1-c1c(F)cncc1NC(=O)c1c(N)nn2cc(F)cnc12,,human patients,"oral, 180 mg once daily, 21 days",,dose-limiting toxicity platelet decrease,0%
C[C@]1(CO)Cc2ncn(-c3ccc(C#N)c(Cl)c3)c2C(=O)O1,,human,"3 mg multiple doses, fasted",,subjects with drug-related urine abnormality,11.1%
N#C[C@@]1(n2ccc(N)nc2=O)O[C@H](CO)[C@@H](O)[C@H]1O,,CD-1 mouse,"intravenous, 15 mg/kg",,clearance,12.3 mL/min/kg
CNC(=O)c1cc(Oc2ccc(NC(=O)Nc3cc(C(C)(C)C)nn3-c3ccc4ncccc4c3)c(F)c2)ccn1,"pancreatitis, NCI CTC v3.0",human patients,"oral, 150 mg twice daily, tablet, dose at onset",,related SAE,3%
COc1ccnc(C(=O)N[C@H]2COC(=O)[C@H](Cc3ccccc3)[C@@H](OC(=O)C(C)C)[C@H](C)OC2=O)c1OCOC(=O)C(C)C,aerobic dark soil incubation,clay loam soil,"20 °C, persistence endpoint",,DT50,0.8 days
CC(c1cncnc1)n1c(=S)[nH]c2ccc(Cl)cc2c1=O (centres unmarked),,"mouse, plasma",intravenous,,clearance,22.3 mL/min/kg
CN1CC[C@@H](c2c(O)cc(O)c3c(=O)cc(-c4ccc(C(F)(F)F)cc4Cl)oc23)[C@@H]1CO,measured: Fatigue,relapsed or refractory haematological malignancies,"oral, dose not given, all grades",,adverse event incidence,22% and 22.5%
C[C@@H](NC(=O)N1C(=O)[C@H](Cc2ccnc(N)c2)[C@H]1C(=O)O)C1CCCCC1,,healthy adult Chinese volunteers,"continuous intravenous infusion, 0.6 mg/kg/h, 5-day infusion, CTCAE 5.0 grading",,incidence of grade 3 or higher AEs,0%
CC(C)(O)c1cc(Nc2cc(Oc3cn(C4CC4)nc3C3CCOCC3)ccn2)ccn1,Anemia,"patients with advanced cancer, Japanese cohort","oral, dose not given, grade ≥3",,treatment-related adverse events,0%
CCC[C@@](N)(CO)CCc1ccc(OCCCCCC(C)C)cc1,,"hound dogs, male","oral, 20 mg/kg, capsule, fed state, geometric mean",,AUC(0-last),21.7 µM·h
CCc1ccc(CC/C=C/c2ccc3c(c2)C(=O)CC3)cc1,,"Sprague-Dawley rat, male","oral, 120 mg/kg/day, 14 days",,HDW,24 g/L
CC(=O)c1c(C)c2cnc(Nc3ccc(C4CCN(CCS(C)(=O)=O)CC4)cn3)nc2n(C2CCCC2)c1=O,,Sprague-Dawley rat male and female,"oral gavage twice daily, 4 weeks",,lethal dose,180 mg/kg/day
CCOC(=O)C1=C[C@@H](OC(CC)CC)[C@H](NC(C)=O)[C@@H](N)C1,population pharmacokinetic model,"Sprague-Dawley rats, male, plasma and urine","oral, 30 mg/kg, alone, bootstrap median",,elimination rate constant,0.000406 s⁻¹
N=c1c2c(-c3ccccc3)c(-c3ccccc3)n(Cc3ccccc3)c2ncn1[C@H]1CC[C@H](O)CC1,,"Gottingen minipig, female, plasma","intravenous, 0.25 mg/kg",,CL as % of hepatic blood flow,< 5%
O=C(Nc1ccc2c(c1)B(O)OC2)c1ccccc1OCc1ccccc1,PAMPA,,"200 µM, 5 h, pH 7.4",,membrane retention,17.7%
CCN1[C@@H](C(=O)NC23CCC(C(=O)O)(CC2)CC3)[C@H](c2cccc(Cl)c2F)[C@]2(C(=O)Nc3cc(Cl)ccc32)C12CCCCC2,,advanced solid tumour patients,"oral, dose not given",,abdominal pain,4.8%
COc1ccc(-c2c(-c3ccc(C#N)c(F)c3)nc(N3CCC(N)CC3)n(C)c2=O)cc1F,measured: Thrombocytopenia,neuroendocrine neoplasm patients,"oral, 60 mg, grade 3 to 4, dose expansion",,treatment-related adverse event incidence,38%
COc1cccc(Oc2ccccc2NC(=O)CNC(=O)c2cccc3ccccc23)c1,,"esterase-deficient SCID mice, male","oral, 15 mg/kg/day, 14 days, toxicity study",,sodium/potassium ratio,20 and 21
Cc1cccc(Cn2nc(C3CC3)c3c(NC(=O)c4cnc5cc(OCCN6CCN(C)CC6)ccn45)cccc32)n1,measured: Fatigue,human platinum-resistant ovarian cancer,"oral, dose not given, all-causality",,adverse events incidence,27.3%
CC(C)(C)c1cc(-n2nc3ccccc3n2)c(O)c(C(C)(C)C)c1,exposure assessment,"human, age 16-21 years",spray sunscreen,,mean daily dermal uptake,3.66 ng/kg body weight/day
O=[N+]([O-])NC1=NCCN1Cc1ccc(Cl)nc1,,whole cow milk,20 nM nominal,,dose fraction in milk fat,2.5%
NCCCC[C@@H]1NC(=O)[C@@H](Cc2c[nH]c3ccccc23)NC(=O)[C@H](c2ccccc2)NC(=O)[C@@H]2C[C@@H](OC(=O)NCCN)CN2C(=O)[C@H](Cc2ccccc2)NC(=O)[C@H](Cc2ccc(OCc3ccccc3)cc2)NC1=O,,healthy human volunteers,1950 µg twice daily,,subjects with adverse event Headache,18%

# A few entries again:
SMILES,test,test system,conditions,how to read,endpoint,result
O=[N+]([O-])NC1=NCCN1Cc1ccc(Cl)nc1,,whole cow milk,20 nM nominal,,dose fraction in milk fat,2.5%
NCCCC[C@@H]1NC(=O)[C@@H](Cc2c[nH]c3ccccc23)NC(=O)[C@H](c2ccccc2)NC(=O)[C@@H]2C[C@@H](OC(=O)NCCN)CN2C(=O)[C@H](Cc2ccccc2)NC(=O)[C@H](Cc2ccc(OCc3ccccc3)cc2)NC1=O,,healthy human volunteers,1950 µg twice daily,,subjects with adverse event Headache,18%
